{"data": "Published values of several laboratories", "SCTR": "Secretin receptor (SCTR, Homo sapiens, UniProt P47872)", "G-protein coupled receptor 39": "G-protein coupled receptor 39 (Mus musculus, UniProt Q5U431)", "HDAC6": "Protein deacetylase HDAC6 (HDAC6, Homo sapiens, UniProt Q9UBN7)", "FPR2": "N-formyl peptide receptor 2 (FPR2, Homo sapiens, UniProt P25090)", "RARG": "Retinoic acid receptor gamma (RARG, Homo sapiens, UniProt P13631)", "UniProt P25090, sequence (whole entry, looked up)": "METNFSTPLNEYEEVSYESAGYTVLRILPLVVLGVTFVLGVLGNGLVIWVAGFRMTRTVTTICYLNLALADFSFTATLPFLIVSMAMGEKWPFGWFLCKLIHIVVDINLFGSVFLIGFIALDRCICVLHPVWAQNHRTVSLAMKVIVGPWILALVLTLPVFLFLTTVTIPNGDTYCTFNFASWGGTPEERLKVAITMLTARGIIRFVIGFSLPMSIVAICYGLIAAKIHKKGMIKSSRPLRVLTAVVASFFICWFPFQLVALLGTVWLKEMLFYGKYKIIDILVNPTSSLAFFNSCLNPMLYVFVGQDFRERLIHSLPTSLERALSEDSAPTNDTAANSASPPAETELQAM", "UniProt P47872, sequence (whole entry, looked up)": "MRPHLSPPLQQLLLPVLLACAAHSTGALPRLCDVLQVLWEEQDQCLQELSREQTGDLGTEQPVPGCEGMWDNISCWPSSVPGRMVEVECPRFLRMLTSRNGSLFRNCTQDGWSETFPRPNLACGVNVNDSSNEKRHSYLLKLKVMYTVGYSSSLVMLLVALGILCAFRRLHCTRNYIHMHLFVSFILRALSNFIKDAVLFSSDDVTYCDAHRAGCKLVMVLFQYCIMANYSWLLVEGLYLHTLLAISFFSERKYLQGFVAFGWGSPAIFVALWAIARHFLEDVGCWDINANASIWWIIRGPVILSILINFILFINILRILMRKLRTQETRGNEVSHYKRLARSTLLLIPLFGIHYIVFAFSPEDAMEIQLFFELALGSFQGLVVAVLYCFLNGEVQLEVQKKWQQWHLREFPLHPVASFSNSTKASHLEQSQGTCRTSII", "UniProt Q5U431, sequence (whole entry, looked up)": "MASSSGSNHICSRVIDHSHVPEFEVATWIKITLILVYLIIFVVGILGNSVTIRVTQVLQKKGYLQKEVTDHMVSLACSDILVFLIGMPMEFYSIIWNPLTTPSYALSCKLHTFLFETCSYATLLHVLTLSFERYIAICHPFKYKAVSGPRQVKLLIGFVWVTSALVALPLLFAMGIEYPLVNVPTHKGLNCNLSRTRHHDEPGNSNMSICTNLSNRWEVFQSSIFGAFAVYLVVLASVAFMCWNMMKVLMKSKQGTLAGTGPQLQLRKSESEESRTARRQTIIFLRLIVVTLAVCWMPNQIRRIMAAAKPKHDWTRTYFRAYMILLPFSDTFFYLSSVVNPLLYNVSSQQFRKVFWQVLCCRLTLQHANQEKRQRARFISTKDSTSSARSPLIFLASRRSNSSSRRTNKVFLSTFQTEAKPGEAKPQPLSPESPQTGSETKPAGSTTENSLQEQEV", "UniProt Q9UBN7, sequence (whole entry, looked up)": "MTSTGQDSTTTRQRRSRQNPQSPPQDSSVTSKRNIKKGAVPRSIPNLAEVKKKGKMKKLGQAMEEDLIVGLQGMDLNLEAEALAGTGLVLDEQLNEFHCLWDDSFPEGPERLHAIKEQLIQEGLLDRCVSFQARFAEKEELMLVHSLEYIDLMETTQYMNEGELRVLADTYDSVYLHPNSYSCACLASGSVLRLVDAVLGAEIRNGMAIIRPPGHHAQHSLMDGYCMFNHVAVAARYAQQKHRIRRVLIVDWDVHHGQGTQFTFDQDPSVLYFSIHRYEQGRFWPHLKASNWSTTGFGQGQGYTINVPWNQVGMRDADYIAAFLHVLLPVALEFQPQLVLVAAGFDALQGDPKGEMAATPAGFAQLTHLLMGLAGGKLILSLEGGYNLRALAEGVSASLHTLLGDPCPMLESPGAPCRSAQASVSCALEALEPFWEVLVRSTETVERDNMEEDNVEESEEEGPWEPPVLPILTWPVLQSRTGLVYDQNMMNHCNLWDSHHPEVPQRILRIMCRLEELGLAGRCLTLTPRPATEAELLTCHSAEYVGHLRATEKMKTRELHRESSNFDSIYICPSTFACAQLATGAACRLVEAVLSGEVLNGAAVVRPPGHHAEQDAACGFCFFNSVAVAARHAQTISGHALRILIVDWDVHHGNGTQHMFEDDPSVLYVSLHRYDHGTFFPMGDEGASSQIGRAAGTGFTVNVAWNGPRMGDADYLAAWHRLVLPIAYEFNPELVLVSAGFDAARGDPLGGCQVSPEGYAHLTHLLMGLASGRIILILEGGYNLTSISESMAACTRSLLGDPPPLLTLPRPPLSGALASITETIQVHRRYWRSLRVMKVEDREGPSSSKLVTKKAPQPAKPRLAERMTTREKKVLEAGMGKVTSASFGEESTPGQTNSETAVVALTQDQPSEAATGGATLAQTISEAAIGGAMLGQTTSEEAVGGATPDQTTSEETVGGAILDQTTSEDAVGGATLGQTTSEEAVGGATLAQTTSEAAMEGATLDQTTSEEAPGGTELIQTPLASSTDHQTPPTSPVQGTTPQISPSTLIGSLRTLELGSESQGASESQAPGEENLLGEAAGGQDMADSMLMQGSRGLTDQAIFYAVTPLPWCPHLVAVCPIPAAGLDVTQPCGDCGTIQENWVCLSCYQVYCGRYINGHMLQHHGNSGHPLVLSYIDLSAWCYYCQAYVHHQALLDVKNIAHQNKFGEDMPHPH", "UniProt P0DMS8, sequence (whole entry, unmodified, looked up)": "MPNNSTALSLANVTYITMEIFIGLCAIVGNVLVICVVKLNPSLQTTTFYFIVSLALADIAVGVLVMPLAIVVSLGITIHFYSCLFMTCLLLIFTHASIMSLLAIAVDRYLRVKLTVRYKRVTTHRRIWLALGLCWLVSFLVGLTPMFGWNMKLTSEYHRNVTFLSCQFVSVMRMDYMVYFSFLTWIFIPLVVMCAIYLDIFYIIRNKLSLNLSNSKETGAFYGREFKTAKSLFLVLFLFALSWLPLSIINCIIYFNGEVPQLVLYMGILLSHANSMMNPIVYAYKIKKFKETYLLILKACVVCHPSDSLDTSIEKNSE", "UniProt P13631, sequence (whole entry, looked up)": "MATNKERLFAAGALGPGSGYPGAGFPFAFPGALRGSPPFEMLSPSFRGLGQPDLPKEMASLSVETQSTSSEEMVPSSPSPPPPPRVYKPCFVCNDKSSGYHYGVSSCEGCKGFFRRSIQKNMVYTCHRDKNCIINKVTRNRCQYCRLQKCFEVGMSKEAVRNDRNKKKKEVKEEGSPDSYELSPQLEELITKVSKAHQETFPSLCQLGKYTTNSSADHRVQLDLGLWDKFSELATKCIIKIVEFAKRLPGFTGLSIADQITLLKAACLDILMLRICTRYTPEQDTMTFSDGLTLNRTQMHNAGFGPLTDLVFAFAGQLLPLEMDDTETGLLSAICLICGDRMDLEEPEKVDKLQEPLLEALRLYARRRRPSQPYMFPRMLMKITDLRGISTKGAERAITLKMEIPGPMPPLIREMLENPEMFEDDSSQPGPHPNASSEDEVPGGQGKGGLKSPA", "UniProt Q9NR97, sequence (whole entry, looked up)": "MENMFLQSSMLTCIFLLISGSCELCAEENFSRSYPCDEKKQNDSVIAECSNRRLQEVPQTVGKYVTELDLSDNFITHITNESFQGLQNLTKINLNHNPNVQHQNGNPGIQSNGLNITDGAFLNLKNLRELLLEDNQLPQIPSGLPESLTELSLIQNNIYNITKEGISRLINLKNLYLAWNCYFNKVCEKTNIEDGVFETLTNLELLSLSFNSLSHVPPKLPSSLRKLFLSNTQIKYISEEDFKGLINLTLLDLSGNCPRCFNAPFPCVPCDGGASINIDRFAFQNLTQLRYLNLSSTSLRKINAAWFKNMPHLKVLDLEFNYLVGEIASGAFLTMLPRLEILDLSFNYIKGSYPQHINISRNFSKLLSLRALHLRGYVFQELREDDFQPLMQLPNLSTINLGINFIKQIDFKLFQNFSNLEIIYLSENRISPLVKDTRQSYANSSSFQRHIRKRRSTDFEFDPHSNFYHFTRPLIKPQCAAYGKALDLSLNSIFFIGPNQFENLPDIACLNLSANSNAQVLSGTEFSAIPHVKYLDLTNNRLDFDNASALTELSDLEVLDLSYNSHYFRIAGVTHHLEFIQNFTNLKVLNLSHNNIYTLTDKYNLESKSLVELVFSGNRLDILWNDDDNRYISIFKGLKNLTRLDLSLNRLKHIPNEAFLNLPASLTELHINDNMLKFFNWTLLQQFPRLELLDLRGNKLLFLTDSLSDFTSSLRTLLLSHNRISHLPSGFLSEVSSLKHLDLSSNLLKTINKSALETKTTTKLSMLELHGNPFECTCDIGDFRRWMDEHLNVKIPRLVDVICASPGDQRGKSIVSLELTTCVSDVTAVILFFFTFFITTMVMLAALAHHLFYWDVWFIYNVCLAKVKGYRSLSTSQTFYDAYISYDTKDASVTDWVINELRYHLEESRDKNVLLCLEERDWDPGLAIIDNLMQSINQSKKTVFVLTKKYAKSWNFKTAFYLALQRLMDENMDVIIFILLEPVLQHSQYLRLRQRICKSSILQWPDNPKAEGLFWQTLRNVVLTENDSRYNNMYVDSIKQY", "UniProt P18089, sequence (whole entry, looked up)": "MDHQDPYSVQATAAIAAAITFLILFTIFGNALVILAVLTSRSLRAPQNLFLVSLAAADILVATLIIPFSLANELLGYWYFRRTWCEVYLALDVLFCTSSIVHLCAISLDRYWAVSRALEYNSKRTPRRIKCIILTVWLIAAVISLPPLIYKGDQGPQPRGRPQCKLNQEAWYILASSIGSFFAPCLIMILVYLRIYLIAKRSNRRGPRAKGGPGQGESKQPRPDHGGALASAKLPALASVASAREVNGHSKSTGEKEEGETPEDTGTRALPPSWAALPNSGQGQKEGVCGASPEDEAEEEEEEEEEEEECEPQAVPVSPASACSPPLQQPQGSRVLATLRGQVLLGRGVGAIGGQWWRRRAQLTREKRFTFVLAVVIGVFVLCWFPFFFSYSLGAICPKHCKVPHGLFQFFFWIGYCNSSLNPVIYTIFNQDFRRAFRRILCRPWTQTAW"}
{"SMILES": "CC1=NN(/C(=N/c2nnc(C)s2)Nc2ccc(C)c(C)c2)C(c2cccnc2)S1 (centres unmarked)", "target or system": "SCTR", "assay": "cAMP, agonist, TR-FRET", "quantity": "EC50", "value": "23.6 µM"}
{"SMILES": "Cc1cc([C@@H](C)Nc2ccccc2C(=O)O)c2nc(N3CCC(F)(F)CC3)c(C#N)c(=O)n2c1", "target or system": "Non-receptor tyrosine-protein kinase TYK2, JH1 (TYK2, Homo sapiens, UniProt P29597)", "assay": "binding, competition with immobilised ligand", "conditions": "1 µM", "quantity": "remaining binding", "value": "79%"}
{"SMILES": "CCCCC(=O)Nc1ccc(-c2ccc3ncn(CCC)c(=O)c3c2)cn1", "target or system": "LYN (Homo sapiens, UniProt P07948)", "assay": "binding, competition with immobilised ligand", "conditions": "0.5 µM", "quantity": "remaining binding", "value": "100%"}
{"SMILES": "C[C@H](CCC(=O)O)[C@H]1CC[C@H]2[C@@H]3[C@@H](O)C[C@@H]4C[C@H](O)CC[C@]4(C)[C@H]3CC[C@]12C", "target or system": "G-protein coupled receptor 39", "assay": "calcium signal, agonist, fluorescence", "quantity": "EC50", "value": "> 200 µM"}
{"SMILES": "CC1=NN(/C(=N\\c2ccc(C)c(C)c2)Nc2nnc(C)s2)C(c2ccc(C)cc2)S1 (centres unmarked)", "target or system": "SCTR", "assay": "cAMP, agonist, TR-FRET", "quantity": "EC50", "value": "0.9 µM"}
{"SMILES": "COC(=O)c1cccc(C(=O)c2c[nH]c3ncccc23)n1", "target or system": "AHR (Homo sapiens, UniProt P35869)", "assay": "reporter gene, agonist, luciferase", "quantity": "EC50", "value": "0.157 µM"}
{"SMILES": "CC(C)(C)c1ccc(COc2cccc(C(=O)O)c2)cc1", "target or system": "Nuclear receptor subfamily 4 group A member 3 (Homo sapiens, UniProt Q92570)", "assay": "reporter gene, agonist", "quantity": "EC50", "value": "7 µM"}
{"SMILES": "Cc1cc(Oc2ncccc2CN2CCN(c3ccccc3)CC2)ccc1-c1c(C)c(=O)[nH]c(=O)n1C", "target or system": "ADRA2B (Homo sapiens, UniProt P18089)", "assay": "cAMP, agonist, luciferase", "quantity": "EC50", "value": "112 µM"}
{"SMILES": "CCCN(O)N=Nc1ccc(S(=O)(=O)Nc2onc(C)c2C)cc1", "assay": "ABTS scavenging", "conditions": "120 µg/mL", "quantity": "inhibition", "value": "42.6%"}
{"SMILES": "O=C(NO)c1cccc(OS(=O)(=O)Oc2cccc(-c3ccccc3)c2)c1", "target or system": "HDAC6", "assay": "enzyme activity, inhibitor, fluorescence", "quantity": "Ki", "value": "295 nM"}
{"SMILES": "CC1=C(O)C(=O)OC1C (centres unmarked)", "target or system": "OR8D1 (Homo sapiens, UniProt Q8WZ84, K295A/R293A)", "assay": "cAMP, agonist, luciferase", "quantity": "EC50", "value": "11.5 µM"}
{"SMILES": "N#Cc1ccc(C[C@H](Nc2nnc(-c3ccc(F)cc3)o2)C(=O)N2CCc3ccccc32)cc1", "target or system": "FPR2", "assay": "calcium signal, agonist", "quantity": "EC50", "value": "1.2 µM"}
{"SMILES": "CN(C)c1ncnc2c1ncn2[C@@H]1O[C@H](CO)[C@@H](O)[C@H]1O", "target or system": "ADORA3 (Homo sapiens, UniProt P0DMS8, V169T)", "assay": "G protein activation, agonist", "quantity": "EC50", "value": "2.4 µM"}
{"SMILES": "CCc1ccc(C2=CC(C)(C)Sc3ccc(C#Cc4ccc(C(=O)O)cc4)cc32)cc1", "target or system": "RARG", "assay": "reporter gene, antagonist, luciferase", "quantity": "EC50", "value": "5e-05 µM"}
{"SMILES": "CCCNc1nc2c(N)nc3ccccc3c2s1", "target or system": "TLR8 (Homo sapiens, UniProt Q9NR97)", "assay": "reporter gene, agonist", "quantity": "EC50", "value": "4.06 µM"}
{"SMILES": "COc1cccc(-c2n[nH]c(SCc3ccccn3)n2)c1OC", "system": "male Sprague-Dawley rat, plasma", "conditions": "intravenous, 1 mg/kg, 2 h, single dose", "quantity": "concentration", "value": "97.1 ng/mL"}
{"SMILES": "COc1cc(-c2cncc3c2CN(C)Cc2cc(N4CCNCC4)ccc2-3)cc(OC)c1OC", "target or system": "MAP3K11 (Homo sapiens, UniProt Q16584)", "assay": "enzyme activity, inhibitor", "conditions": "1 µM", "quantity": "remaining activity", "value": "104%"}
{"SMILES": "C=CC(=O)N1CCC(COCC(=O)N2CCN(c3nc(-c4cnc(N)nc4C(F)F)nc(N4CCOC[C@@H]4C)n3)CC2)CC1", "target or system": "PRKCE (Homo sapiens, UniProt Q02156)", "assay": "binding, competition with immobilised ligand", "conditions": "1 µM", "quantity": "remaining binding", "value": "85%"}
{"SMILES": "CC1=NN(/C(=N\\c2ccc(OC(F)(F)F)cc2)Nc2nnc(C)s2)C(c2ccc(C)cc2)S1 (centres unmarked)", "target or system": "SCTR", "assay": "cAMP, agonist, TR-FRET", "quantity": "EC50", "value": "> 50 µM"}
{"SMILES": "Cc1cccc(-c2nnc(N[C@@H](Cc3ccc(C#N)cc3)C(=O)N3CCc4ccccc43)o2)c1", "target or system": "FPR2", "assay": "calcium signal, agonist", "quantity": "EC50", "value": "29.6 µM"}
{"SMILES": "C[C@H](CCC(=O)O)[C@H]1CC[C@H]2[C@@H]3CC[C@@H]4C[C@H](O)CC[C@]4(C)[C@H]3CC[C@]12C", "target or system": "G-protein coupled receptor 39", "assay": "calcium signal, agonist, fluorescence", "quantity": "EC50", "value": "> 200 µM"}
{"SMILES": "CNc1ncc2c(/C=C/C(=O)N3CCC(OC)CC3)nn(Cc3cccc(C(F)(F)F)c3)c2n1", "target or system": "PKN3 (Homo sapiens, UniProt Q6P5Z2)", "assay": "enzyme activity, inhibitor, radiometric", "conditions": "1 µM", "quantity": "remaining activity", "value": "86%"}
{"SMILES": "O=C(NO)c1cc(F)cc(OS(=O)(=O)Oc2ccc(Oc3ccccc3)cc2)c1", "target or system": "HDAC6", "assay": "enzyme activity, inhibitor, fluorescence", "quantity": "Ki", "value": "1180 nM"}
{"SMILES": "CC1=NN(/C(=N/c2nnc(C)s2)Nc2ccc(C)c(C)c2)C(c2ccsc2)S1 (centres unmarked)", "target or system": "SCTR", "assay": "cAMP, agonist, TR-FRET", "quantity": "EC50", "value": "7 µM"}
{"SMILES": "C1=C/COCc2cc(ccc2OCCN2CCCC2)Nc2nccc(n2)-c2cccc(c2)COC/1", "target or system": "KIT (Homo sapiens, UniProt P10721, L576P)", "assay": "binding", "conditions": "0.1 µM", "quantity": "remaining binding", "value": "4.5%"}
{"SMILES": "CC(C)=CCNc1ncnc2c1ncn2[C@@H]1O[C@H](CO)[C@@H](O)[C@H]1O", "target or system": "ADORA3 (Homo sapiens, UniProt P0DMS8, M174L)", "assay": "G protein activation, agonist", "quantity": "EC50", "value": "0.66 µM"}
{"SMILES": "CC1=NN(/C(=N\\c2ccc(F)cc2)Nc2nnc(C)s2)C(c2ccc(C)cc2)S1 (centres unmarked)", "target or system": "SCTR", "assay": "cAMP, agonist, TR-FRET", "quantity": "EC50", "value": "6.8 µM"}
{"SMILES": "Cc1oc2ccccc2c1Cc1cc(I)c(OCC(=O)O)c(I)c1", "target or system": "KCNH1 (Homo sapiens, UniProt O95259)", "assay": "ion current, agonist, patch clamp", "quantity": "EC50", "value": "0.5 µM"}
{"SMILES": "N#Cc1ccc(C[C@H](Nc2nnc(-c3ccc(F)cc3)s2)C(=O)N2CCc3ccccc32)cc1", "target or system": "FPR2", "assay": "calcium signal, agonist", "quantity": "EC50", "value": "2 µM"}
{"SMILES": "CC1=NN(/C(=N\\c2ccncc2)Nc2nnc(C)s2)C(c2ccc(C)cc2)S1 (centres unmarked)", "target or system": "SCTR", "assay": "cAMP, agonist, TR-FRET", "quantity": "EC50", "value": "> 50 µM"}
{"SMILES": "N#Cc1ccc(C[C@H](Nc2nnc(-c3ccc(Br)cc3)s2)C(=O)N2CCc3ccccc32)cc1", "target or system": "FPR2", "assay": "calcium signal, agonist", "quantity": "EC50", "value": "28.1 µM"}
{"SMILES": "Cc1ccc(C2=CCC(C)(C)c3cc(C(/C=C/c4ccc(C(=O)O)cc4)=N/O)ccc32)cc1", "target or system": "RARG", "assay": "reporter gene, antagonist, luciferase", "quantity": "EC50", "value": "0.0011 µM"}
{"SMILES": "N#Cc1ccc(C[C@H](Nc2nnc(-c3cccc(Br)c3)s2)C(=O)N2CCc3ccccc32)cc1", "target or system": "FPR2", "assay": "calcium signal, agonist", "quantity": "EC50", "value": "13.6 µM"}
{"SMILES": "CN(Cc1ccc(C2(C(F)(F)F)CC2)cc1)Cc1cccc2ccccc12", "target or system": "Trichophyton rubrum", "assay": "microbial growth, disc diffusion", "system": "ATCC28188", "conditions": "0.0005 µg/mL, 6 days", "quantity": "inhibition zone", "value": "9.5 mm"}
{"SMILES": "CC1=NN(/C(=N\\c2ccc(Br)cc2)Nc2nnc(C)s2)C(c2ccc(C)cc2)S1 (centres unmarked)", "target or system": "SCTR", "assay": "cAMP, agonist, TR-FRET", "quantity": "EC50", "value": "6.1 µM"}
{"SMILES": "C[C@H](CCC(=O)O)[C@H]1CC[C@H]2[C@@H]3[C@H](O)C[C@@H]4C[C@H](O)CC[C@]4(C)[C@H]3C[C@H](O)[C@]12C", "target or system": "G-protein coupled receptor 39", "assay": "calcium signal, agonist, fluorescence", "quantity": "EC50", "value": "> 200 µM"}
{"SMILES": "CC1=NN(/C(=N/c2nnc(C)s2)Nc2ccc(C)c(C)c2)C(c2ccc(-c3ccc(C(F)(F)F)cc3)cc2)S1 (centres unmarked)", "target or system": "SCTR", "assay": "cAMP, agonist, TR-FRET", "quantity": "EC50", "value": "0.1 µM"}
{"SMILES": "O=c1nc(N2CCN(CC3CCCCC3)CC2)sc2c([N+](=O)[O-])cc(C(F)(F)F)cc12", "system": "CD-1 mouse, plasma", "conditions": "intravenous, 10 mg/kg, 15 min", "quantity": "concentration", "value": "7130 ng/mL"}
{"note": "Excerpt of the above:"}
{"SMILES": "CC1=NN(/C(=N\\c2ccc(Br)cc2)Nc2nnc(C)s2)C(c2ccc(C)cc2)S1 (centres unmarked)", "target or system": "SCTR", "assay": "cAMP, agonist, TR-FRET", "quantity": "EC50", "value": "6.1 µM"}
{"SMILES": "C[C@H](CCC(=O)O)[C@H]1CC[C@H]2[C@@H]3[C@H](O)C[C@@H]4C[C@H](O)CC[C@]4(C)[C@H]3C[C@H](O)[C@]12C", "target or system": "G-protein coupled receptor 39", "assay": "calcium signal, agonist, fluorescence", "quantity": "EC50", "value": "> 200 µM"}
{"SMILES": "CC1=NN(/C(=N/c2nnc(C)s2)Nc2ccc(C)c(C)c2)C(c2ccc(-c3ccc(C(F)(F)F)cc3)cc2)S1 (centres unmarked)", "target or system": "SCTR", "assay": "cAMP, agonist, TR-FRET", "quantity": "EC50", "value": "0.1 µM"}
{"SMILES": "O=c1nc(N2CCN(CC3CCCCC3)CC2)sc2c([N+](=O)[O-])cc(C(F)(F)F)cc12", "system": "CD-1 mouse, plasma", "conditions": "intravenous, 10 mg/kg, 15 min", "quantity": "concentration", "value": "7130 ng/mL"}
